Measurements from different studies.
Numbered parts are unrelated; each lists some results of a single study.

Study 1
Target: Interferon regulatory factor 5, full length, phosphomimetic (IRF5, Homo sapiens, UniProt Q13568-2, residues 1-514, K96S/S451D/S453D/S456D/S462D)
Method: protein-binding microarray
Molecule type: double-stranded DNA, one strand shown
Medium: in vitro
Concentration: 250 nM
Setting: 60-bp whole probe
Together with: salmon DNA 0.4 mg/ml
Relative to: random background probes
Direction: higher = stronger binding
Constant ends, left off below: GCCTAGCAC … GTCTTGATTCGCTTGACGCTGCTG
For `TCATGCTTCGAGATCTCACTGTGCTAG`, the log fluorescence was 0.215 z-score.
`GTAGTAATCTTAAGGCTGTCGTGCTAG` has a log fluorescence of -0.359 z-score.
`GACGGACTGGAACTGGGGACGTGCTAG` has a log fluorescence of -0.597 z-score.
With `TTAGATCTCAGTCTCGATTTGTGCTAG` the log fluorescence was 0.789 z-score.
With `GTCGGTATCGGGACTGGGGACGTGCTA` the log fluorescence was 1.67 z-score.
`TTGGTTCTCAGCTTGGGGCAGTGCTAG` gave a log fluorescence of -0.405 z-score.
`TTAGGTTTCGATACTGGGTTAGTGCTA` gave a log fluorescence of 9.41 z-score.
With `GACGATATCGGTTATCGAGACGTGCTA` the log fluorescence was 5.46 z-score.
With `GACGATACCGGGTATCGAGACGTGCTA` the log fluorescence was 1.22 z-score.

Study 2
Target: Sal-like protein 4, full length isoform A (SALL4, Homo sapiens, UniProt Q9UJQ4, residues 1-1053)
UniProt Q9UJQ4, sequence (whole entry, looked up): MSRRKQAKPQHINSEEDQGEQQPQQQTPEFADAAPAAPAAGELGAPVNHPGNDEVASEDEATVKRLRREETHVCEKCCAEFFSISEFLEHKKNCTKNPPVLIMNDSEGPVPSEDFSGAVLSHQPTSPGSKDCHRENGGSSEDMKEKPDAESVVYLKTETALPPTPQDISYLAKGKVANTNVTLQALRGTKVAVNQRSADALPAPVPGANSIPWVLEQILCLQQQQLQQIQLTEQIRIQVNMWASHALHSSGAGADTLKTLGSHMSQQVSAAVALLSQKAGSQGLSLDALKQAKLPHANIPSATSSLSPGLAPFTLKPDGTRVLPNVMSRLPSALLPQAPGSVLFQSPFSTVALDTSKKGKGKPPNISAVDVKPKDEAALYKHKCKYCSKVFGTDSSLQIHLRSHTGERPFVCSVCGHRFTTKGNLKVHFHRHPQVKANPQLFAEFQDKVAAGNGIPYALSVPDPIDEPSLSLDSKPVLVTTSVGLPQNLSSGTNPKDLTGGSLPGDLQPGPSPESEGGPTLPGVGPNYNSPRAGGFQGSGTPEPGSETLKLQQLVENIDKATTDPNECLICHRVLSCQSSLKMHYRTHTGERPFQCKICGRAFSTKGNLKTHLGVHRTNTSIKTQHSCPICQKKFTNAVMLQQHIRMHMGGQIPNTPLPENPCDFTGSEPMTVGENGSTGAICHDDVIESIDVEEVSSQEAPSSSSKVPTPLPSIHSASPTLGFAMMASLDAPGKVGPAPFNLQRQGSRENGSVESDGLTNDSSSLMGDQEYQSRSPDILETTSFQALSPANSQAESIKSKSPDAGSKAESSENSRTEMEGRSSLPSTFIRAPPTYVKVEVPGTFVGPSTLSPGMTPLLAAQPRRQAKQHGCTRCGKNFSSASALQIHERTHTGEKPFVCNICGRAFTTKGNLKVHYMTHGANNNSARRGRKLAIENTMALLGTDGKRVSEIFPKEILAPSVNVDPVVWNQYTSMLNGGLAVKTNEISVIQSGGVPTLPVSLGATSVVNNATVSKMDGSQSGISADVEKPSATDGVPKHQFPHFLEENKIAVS
Method: universal PBM
Molecule type: double-stranded DNA, one strand shown
Medium: in vitro
Concentration: 600 nM
Setting: 8-mer, flanks averaged, mean of replicates
Direction: higher = stronger binding
`GCGGCAAC` has an E-score of -0.23.
`AAGTGCCC` has an E-score of -0.264.
`CTAAATAC` has an E-score of 0.216.
The E-score of `CGCAGGCA` is reported as -0.167.
With `TAGTCATA` the E-score was 0.304.
`ATGTGACG` has an E-score of 0.0514.
`ACCCACTC` gave an E-score of -0.0519.
`CCTGATAG` gave an E-score of -0.137.
With `CAGTCTGG` the E-score was -0.175.
With `AGTTTGGA` the E-score was 0.149.
With `ATGCCGTG` the E-score was -0.14.

Study 3
Target: Histone acetyltransferase KAT6A, both winged helices, GST fusion (KAT6A, Homo sapiens, UniProt Q92794, residues 1-181)
Method: protein binding microarray
Molecule type: double-stranded DNA, one strand shown
Medium: in vitro
Concentration: not given
Setting: 8-mer, flanks averaged, mean of 2 arrays, mostly near background
Relative to: not given
Direction: higher = stronger binding
Target sequence (chain): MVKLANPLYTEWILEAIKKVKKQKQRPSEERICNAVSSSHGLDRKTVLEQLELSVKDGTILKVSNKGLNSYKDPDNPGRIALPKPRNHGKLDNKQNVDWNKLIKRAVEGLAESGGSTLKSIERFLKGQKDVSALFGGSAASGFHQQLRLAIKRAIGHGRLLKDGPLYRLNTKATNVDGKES
`CACAGAAA` gave an E-score of -0.0962.
`AATTGCCG` gave an E-score of 0.284.
With `AATGGAGG` the E-score was -0.142.
For `AAAGCTGC`, the E-score was -0.0284.
`GGTTGCAC` gave an E-score of -0.023.
With `AGGAAGGC` the E-score was -0.0704.
`AGGCATAG` gave an E-score of -0.0562.
For `AGTGTGTC`, the E-score was -0.103.
`AGCTTTGC` gave an E-score of -0.138.
The E-score of `AAACCCCT` is reported as -0.107.
The E-score of `ATAGTGGG` is reported as -0.274.

Single results of other studies
For `PhoQ, residues 284 288 289 292 302 303 WVSSAF`, the fold induction was 16.8 (PhoP, residues 12 14 15 18 19 LQHIR (Escherichia coli, UniProt P23836); Sort-seq, refers to: YFP reporter; E. coli; PhoQ-PhoP variant library, together with: 10 µM Mg2+; relative to: high Mg2+ state, higher = stronger signaling).

Some of these lines once more (study 1):
With `TTAGATCTCAGTCTCGATTTGTGCTAG` the log fluorescence was 0.789 z-score.
`GACGGACTGGAACTGGGGACGTGCTAG` has a log fluorescence of -0.597 z-score.
With `GACGATATCGGTTATCGAGACGTGCTA` the log fluorescence was 5.46 z-score.
With `GTCGGTATCGGGACTGGGGACGTGCTA` the log fluorescence was 1.67 z-score.
For `TCATGCTTCGAGATCTCACTGTGCTAG`, the log fluorescence was 0.215 z-score.
